Assay results of several laboratories.
Lines come from different studies, so protocols differ. ± marks the error that the study gave.

O=c1[nH]c(=O)c(Cc2cccc(C(F)(F)F)c2)c([C@H]2CC[C@H](c3ccccc3)CC2)[nH]1  Cmax (human, plasma; oral, 150 mg once daily, day 14, geometric mean): 169 ng/mL
Cc1cc(Nc2cc3ncccc3c(N[C@@H]3C[C@H]4CC[C@@H](C3)N4CCC#N)n2)n[nH]1  Cmax (beagle dog, male, plasma; oral, 100 mg/kg/day, last day of 13 weeks): 522 ng/mL
CNCc1ccc(-c2[nH]c3cc(F)cc4c3c2CCNC4=O)cc1  Cmax (human, fed high-fat meal, plasma; oral, 600 mg, single dose, arithmetic mean): 959 ng/mL
C[C@H]1CN(C2COC2)CCN1c1ccc(Nc2cc(-c3ccnc(N4CCn5c(cc6c5CC(C)(C)C6)C4=O)c3CO)cn(C)c2=O)nc1  Cmax (cynomolgus monkey, male; oral, 10 mg/kg): 12.9 ng/mL
C=CC(N)CCC(=O)O (centres unmarked)  Cmax (male Sprague-Dawley rat, plasma; oral, 1.0 mg/kg, formulation 3, added: low-fat infant formula 1500 mg/kg): 984 ± 45 ng/mL
CC(C)NC[C@@H](C(=O)N1CCN(c2ncnc3c2[C@H](C)C[C@H]3O)CC1)c1ccc(Cl)cc1  Cmax (human, hepatic impairment Severe (Child-Pugh), plasma; oral, 100 mg single, geometric mean): 80 ng/mL
O=C(O)C[C@H](O)C[C@H](O)/C=C/c1c(C2CC2)nc2ccccc2c1-c1ccc(F)cc1  Cmax (male Sprague Dawley rat, control, plasma; oral, 2.5 mg/kg, geometric mean, added: vehicle): 800 nM
O=C(CCCCCCC(=O)Nc1ccccc1)NO  Cmax (patients, serum; oral, 800 mg, cycle 1, added: flavopiridol): 4800 nM
CS(=O)(=O)c1ccc(-c2cnc(N)c(-c3ccc(C(F)(F)F)nc3)c2)cc1  Cmax (pregnant female Sprague-Dawley rat, plasma; oral, 10 mg/kg/day, gestation day 17): 2380 ng/mL
C=CC(=O)N1CCC[C@@H](n2c(=O)n(-c3ccc(Oc4ccccc4)cc3)c3c(N)nccc32)C1  Cmax (cynomolgus monkey, male; oral, 10 mg/kg): 4.8 ng/mL
CCN1CCN(c2ccc(Nc3cc(N(C)C(=O)Nc4c(Cl)c(OC)cc(OC)c4Cl)ncn3)cc2)CC1  Cmax (LC-MS/MS; juvenile female Crl:WI(Han) rats, plasma; oral gavage, 1.0 mg/kg/day, postnatal day 17): 41.2 ng/mL
CCCC[C@H](NC(C)=O)C(=O)N[C@H]1CCC(=O)NC[C@@H](C(=O)N[C@@H](Cc2c[nH]c3ccccc23)C(N)=O)NC(=O)[C@H](CCCNC(=N)N)NC(=O)[C@@H](Cc2ccccc2)NC(=O)[C@H](Cc2c[nH]cn2)NC1=O  Cmax (beagle dog, male, plasma; subcutaneous, 8.0 mg/kg daily, day 1): 400 ng/mL
CC(C)=CCC[C@](C)(O[C@@H]1O[C@H](CO)[C@@H](O)[C@H](O)[C@H]1O)[C@H]1CC[C@]2(C)[C@@H]1[C@H](O)C[C@@H]1[C@@]3(C)CC[C@H](O[C@@H]4O[C@H](CO)[C@@H](O)[C@H](O)[C@H]4O[C@@H]4O[C@H](CO)[C@@H](O)[C@H](O)[C@H]4O)C(C)(C)[C@@H]3CC[C@]12C  Cmax (Sprague-Dawley rat, plasma; oral, 2000 mg/kg ginseng extract, control diet 2 weeks before dosing): 906 ± 330 ng/mL
CO[C@H]1C[C@@H]2CC[C@@H](C)[C@@](O)(O2)C(=O)C(=O)N2CCCC[C@H]2C(=O)O[C@H]([C@H](C)C[C@@H]2CC[C@@H](O)[C@H](OC)C2)CC(=O)[C@H](C)/C=C(\C)[C@@H](O)[C@@H](OC)C(=O)[C@H](C)C[C@H](C)/C=C/C=C/C=C/1C  Cmax (human, whole blood; oral, 16 mg, without ketoconazole): 47.4 ng/mL
CC1=C2C[C@H]3[C@@H](CC[C@@H]4C[C@H](NS(C)(=O)=O)CC[C@@]43C)[C@@H]2CC[C@@]2(C1)O[C@@H]1C[C@H](C)CN[C@H]1[C@H]2C  Cmax (patients, plasma; oral, 210 mg daily, day 22, cycle 1): 595 ng/mL
CS(=O)(=O)Nc1ccc(C(=O)O[C@@H](Cc2c(Cl)c[n+]([O-])cc2Cl)c2ccc(OC(F)F)c(OCC3CC3)c2)cc1OCC1CC1  Cmax (human, plasma; inhaled, 600 µg once daily, day 1, single-dose dry powder inhaler): 0.29 ng/mL
CCCCCCCCCCCCCCCCCCOP(=O)([O-])OC1CC[N+](C)(C)CC1  Cmax (rhesus monkey, male, plasma; oral, 7 mg/kg, single dose): 7100 ng/mL

A few entries again:
O=C(O)C[C@H](O)C[C@H](O)/C=C/c1c(C2CC2)nc2ccccc2c1-c1ccc(F)cc1  Cmax (male Sprague Dawley rat, control, plasma; oral, 2.5 mg/kg, geometric mean, added: vehicle): 800 nM
O=C(CCCCCCC(=O)Nc1ccccc1)NO  Cmax (patients, serum; oral, 800 mg, cycle 1, added: flavopiridol): 4800 nM
